# Results gathered from unrelated publications.
# A part holds a random share of what one study measured.

# Set 1 — method: RNA Bind-n-Seq; form: RNA; medium: in vitro; tested at: 365 nM; reference: no-protein control; reading: higher = stronger binding
# Target: RNA binding protein fox-1 homolog 2, RRM domain, GST-SBP tag (RBFOX2, Homo sapiens, UniProt O43251-10, residues 100-194)
# Setting: natural RNA segment, single round, ends assumed
# Shared flanks, not repeated: GGGAGUUCUACAGUCCGACGAUC … UGGAAUUCUCGGGUGCCAA
Oligonucleotide,RBNS enrichment (R)
CAGUAGGCAGGCUGAGUGGCCCAGAGCACUCCUGGAAGUGGGACUCCCCUGCCUUGCAAAUGUGCCUCUCCAGACUGCUCCUGCACUUACCCCCUCCCCGCAGCACCUUC,4.2
CAUUUCCAUUUCUAAGCAGUUGAAUGACACAGUCAGAUUCUUUGGUGUAUGCUUUGUUCUUUCCAUCUCAAGCAUUUAUCCAAAUUCUGCUCACAGACAUGAGGAAGCAG,0.385
CGGAGUUGGGGGUACCCGUUGCAGAGCCAGGGACAUGAUGCAGGCGAAGCUUGGGAUCUGGCCAAGUUGGACUUUGAUCCUUUGGGCAGAUGUCCCAUUGCUCCCUGGAG,0.622
GAGAGGGCAGAGUACAAUGGGGUGAGGUCCCAGGCGCAUGGAGCAAGGCUCCCUUUCUGGGGAAGCCUCGUGUUGGAGAUAGAGGCAGCAGGCCUGCGUUGCCAGGGAGU,3.9
UUAAACACGGCCUUGGCCUAAGGCCUGGCUGGCUAGUGCUCUGAGUGACUCUAUUUUCCCUGAGCUUGCUCCCUGAGGACCCACCACAGCCUCAUCCUUUGCCUUGCUGG,0.442
UCUAGAGGAAUUUGGUCUAUGCUUGUCCACCAGGCUACCAGCUAGGGCUCUAGAGAAAGCAGCUAGUGGUUUCUUUGUCUUGGAACAGGCAGGGUAAGGGUGGGCACAUU,0.529
CAGUGGGGAGAUCUCAGCUCACUGCAGCCUCUGCCUCCCAAGUUCAAGCGAUUCUCCUGUCUCAGCCUCCCAGGUAGCUGGGAUUAAAGGUGCCCACCACCACACCUGGC,0.389
CUAUAACCUUCCCCUUUUACCUCAAUUAUUUGAUAAUUUCCCCACCCAGCCCCUCAUCCACCUGGAAUUUGAGGAGGAGAAAUGAAAAAACAGUGUGUCACUGGUGUCAC,0.797
GAGUCUCUCUGUCUUCUUCUUUCUUUGCCUGAUGCACAUCAAGGUAGAGUGCAUUCCGGUGUGGGUGCCAAUGAACUAGCUGCGAGCUGCUGUCAGAGUGGGAGCAGACU,0.364
GUAGUCAAGUGUAACUAACUCCUAAGGGCAACCAUUUGUAUCUUAUAUAUCAGAAUUACUUUAUAGUUUGAAAGCACUUUGCACACAUUUCCUGUAUAUAAAGGAUGUAA,1.68
AAAUACAUUUCUUAAGGUUAAAAGCAUGCACUUCCAUGCAUACUUGCUUUUGGGGAGAGUGGGGAGAAGACAUUCUAAUAAUCAGUUUGUGAAAUAGCUUCUGUUGGAAA,0.65
CAUGGCCCCACUUGUAUCCAGAAGUUCCCAGGGGUGAUUGUGAUGGUGGUUGGGACUGGAGGUUGUAUAAGGUGUUCUUGGAAGGAAGGGGCAGGAGUUGGAAUUAGUUG,4.08

# Set 2 — method: protein-binding microarray; form: double-stranded DNA, one strand shown; medium: in vitro; tested at: not given; reading: higher = stronger binding
# Target: Transcriptional repressor CTCF (CTCF, Homo sapiens, UniProt P49711, residues 1-727, full length assumed)
# Setting: k-mer, scored over probes, only values ≥0.25
# Target sequence (chain): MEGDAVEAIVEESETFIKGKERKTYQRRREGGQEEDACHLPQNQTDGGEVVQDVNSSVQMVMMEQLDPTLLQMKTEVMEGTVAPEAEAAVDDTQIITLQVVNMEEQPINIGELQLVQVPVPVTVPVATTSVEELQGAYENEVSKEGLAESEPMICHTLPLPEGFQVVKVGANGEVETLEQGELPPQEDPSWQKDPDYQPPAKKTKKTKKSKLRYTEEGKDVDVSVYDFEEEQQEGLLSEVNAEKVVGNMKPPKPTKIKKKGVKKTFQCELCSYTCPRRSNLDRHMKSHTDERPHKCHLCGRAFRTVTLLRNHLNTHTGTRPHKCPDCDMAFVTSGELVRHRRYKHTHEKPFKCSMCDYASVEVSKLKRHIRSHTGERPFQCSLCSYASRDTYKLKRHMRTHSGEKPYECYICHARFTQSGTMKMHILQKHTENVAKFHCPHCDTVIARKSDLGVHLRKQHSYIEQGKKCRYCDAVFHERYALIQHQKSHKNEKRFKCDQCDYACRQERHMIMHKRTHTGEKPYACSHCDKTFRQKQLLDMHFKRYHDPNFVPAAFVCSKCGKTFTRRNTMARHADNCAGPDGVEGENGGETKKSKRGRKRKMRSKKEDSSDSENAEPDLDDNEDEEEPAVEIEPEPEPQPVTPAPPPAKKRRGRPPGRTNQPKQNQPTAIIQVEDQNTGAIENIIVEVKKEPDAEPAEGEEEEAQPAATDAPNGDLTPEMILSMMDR
Oligonucleotide,E-score
ATATTGTG,0.28
GTTTAATA,0.29
AACATAAT,0.369
CTGCGCGC,0.308
AAACATAT,0.297
TAATAACA,0.343
ATTACTCG,0.25
AGGTTGTA,0.284
TTACCAAA,0.253
AGTACAAT,0.265
ATATTATC,0.263
ATTACCAC,0.315
GGTTATAA,0.277
ATGCGCCC,0.379
TACGCATA,0.31
AATTACGA,0.267
AGTACGTA,0.267
CGGTTATA,0.272
AATTATGC,0.292
GCGCGTAA,0.391
AAAAAAAC,0.291
GTGGCGCA,0.478
TGCGCCAA,0.344
AAATGATA,0.368
GTGCGCAA,0.298

# Set 3 — method: competition protein-binding microarray; form: double-stranded DNA, one strand shown; medium: in vitro; tested at: 2 µM; together with: Cbf1 competitor, 0.05 µM; reading: higher = stronger binding; shared flanks, not repeated: … GTCTTGATTCGCTTGACGCTGCTG
# Target: Phosphate system positive regulatory protein PHO4, full length, GST-tagged (PHO4, Saccharomyces cerevisiae, UniProt P07270, residues 1-312)
# Setting: whole 60-bp probe, lowest competitor level
# Residues (chain): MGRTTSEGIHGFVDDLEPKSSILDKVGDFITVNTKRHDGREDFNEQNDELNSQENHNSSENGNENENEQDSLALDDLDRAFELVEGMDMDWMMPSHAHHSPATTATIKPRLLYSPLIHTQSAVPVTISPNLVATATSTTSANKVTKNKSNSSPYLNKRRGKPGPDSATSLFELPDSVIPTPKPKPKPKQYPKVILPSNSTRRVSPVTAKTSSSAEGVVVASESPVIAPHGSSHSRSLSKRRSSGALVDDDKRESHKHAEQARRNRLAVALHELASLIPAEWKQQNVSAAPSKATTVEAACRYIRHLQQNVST
Oligonucleotide,fluorescence intensity [a.u.]
GAGTTTGATTCCAAACTCGTGGTGATACCAACGAAG,8810
AGAAAAACCAGCCATCGCGTGTGTTTGGAGAGCTGA,6110
TGCCAAGCACTTTTCATCATGACAATTAGGGTAGAT,3950
CCTTATGTTATATGGCAGGTGAAATTGTGGGGCTAC,4640
CATTGGCCAGGGACGCATGTGCAGAGGCGGCAGAGT,10400
AAATTACCGCCTTGACTCGTGAAACTGGATAATTCG,4110
TTGCCGCAGAAGAGTCACGTGATGGGCACTCTTACT,11700
TTGGCCGGGTCTTGTCACGTGAAGAGAGAAATTCGG,10200
GGTTTACCGGAATGTCAGGTGATAGCAGCGGAGGGT,4040
AGGCCTATCTTCTCACGCCTGAGGAACCTGCCAAGA,4120
AAAAGTAACCATAGTCTCGTGCTAATTCGGTACTAT,9570
AAAGCGGTAATTTGCTGTGTGGGTGCAGATATCTAT,4930
CTTTCCCGATCTTGTCACATCACTTTAGCACATTTG,4170
CTTCTGTAAATTTGCACCGTGGGTGGACGCGCCCCG,8150
GTCTTGTCTCATTGCGTCGTGGGTGTCCCCACTTCA,7120
CTTTCCCGATCTTGTCACTCTACTTTAGCACATTTG,3760
CATACCATCTTTAGCGACGTGTGGAAGACCCGATTC,5050
AACCAGGGCAATTCATCCGTGACGGCGAATGTTTTG,3760
TGGCATCCCTCCCGACACGTGACCGCAGCGGGGACA,14400
CTTCTGTAAATTTGTTTCGTGGGTGGACGCGCCCCG,4680
TGAAGACTTTGCATCTACGTGTCGGACAAGCTGCCC,5330
CGTCCTAGTGATTGTCACCACACTTCCATGAGGAAG,6040
TTTAGGCCGCAGTGGGTCGTGCCAGACGGCAGCGAT,7250
AACTCCTGTGGCAACTTCGTGATGGTGTTGATCTCC,4990
CCATTAAAAATAATATGTGTGATATTCTTCCACACG,5980

# Set 4 — method: RNA Bind-n-Seq; form: RNA; medium: in vitro; tested at: 200 nM; setting: whole 134-nt RNA, ends assumed; together with: 150 mM KCl; reference: input library; reading: higher = stronger binding
# Target: Ras GTPase-activating protein-binding protein 1, full length (G3BP1, Homo sapiens, UniProt Q13283)
# Sequence of UniProt Q13283 (whole entry, looked up): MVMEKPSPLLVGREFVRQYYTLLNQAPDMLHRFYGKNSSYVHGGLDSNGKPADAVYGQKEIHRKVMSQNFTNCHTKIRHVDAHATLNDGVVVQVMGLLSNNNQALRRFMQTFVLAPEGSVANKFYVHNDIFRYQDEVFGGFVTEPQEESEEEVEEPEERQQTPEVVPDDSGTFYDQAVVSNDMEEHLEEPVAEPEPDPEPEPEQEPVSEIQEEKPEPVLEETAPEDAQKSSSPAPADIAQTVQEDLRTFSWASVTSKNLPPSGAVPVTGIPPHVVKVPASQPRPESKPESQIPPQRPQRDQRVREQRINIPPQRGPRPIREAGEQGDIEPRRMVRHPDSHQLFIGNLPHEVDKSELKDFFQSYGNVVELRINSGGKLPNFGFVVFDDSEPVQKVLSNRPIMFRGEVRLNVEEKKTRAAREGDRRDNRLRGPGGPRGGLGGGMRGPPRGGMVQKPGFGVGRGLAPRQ
# Shared flanks, not repeated: GGGAGUUCUACAGUCCGACGAUC … UGGAAUUCUCGGGUGUCAAGG
Oligonucleotide,log2 enrichment
AAGUCCUGUGCUACACAUCGUAUGUACCGAAUCGGGAAAAGGGAAAAGGGAAAAGGAAAGUAUUAUGUUACGCCGUUCGGAUCUGCACUU,-0.771
UGGGAGGUGGAUUUUGUUUAUUUUUUUAGCUCAUUUCCAGGGGUGGGAAUUUUUUUUUAAUAUGUGUCAUGCAUAAAGUUGUUUUUGAAA,0.181
UAGAGACUUCAGAUGGAUUUUAAAAUUGAACACACUUGGGAUGGUUUUCCAGUGAAGCAUGAGCCCGUAUUUAUCAGGCUGAAUCCAGGU,-1.41
UGGGAGGUGGAUUUUGUUUAUUUUUUUAGCUCAUUUCCAGGGGUGGGUAUUUUUUUUUAAUAUGUGUCAUGAAUAAAGUUGUUUUUGAAA,0.401
CACAGACAACACGCACCCACACAGACACAGUGGGAAGGGGUUGGGAUGGGGACAGGGUGCACAGCAGGGCGGGGUAGGACCCCAGCCCCU,1.75
CACAGACAACACGCACCCACACAGACACAGAGGGAAGGGGUUGGGAUGGGGACAGGGUGCACAGCAGGGCGGAGUAGGACCCCAGCCCCU,1.97
GCCCUGUAAUCGUGGAGAUCCCGCACUUUGCCUCCCAUGGCCGUGGAGACCGCGAGCUCGUGGUUCUGAGGAGCGAAAACGGCUCCGUGU,-1.76
UAGUGAUGGUCCUAAAUAGCAUGAGUGUCAGCUGGAGCGCCCGGAUCCAGAUUUUCUUAACCUUUUGCAAGCUCACAGCAAUUCUGAUAA,-0.583
CCUGUGCUACACAUCGUAUGUACCGAAUCGGGGAAAAAGGGGUUUUUGGGGAAAAAGGGGAAAGUAUUAUGUUACGCCGUUCGGAUCUGC,0.299
GUCCUGUGCUACACAUCGUAUGUACCGAAUCGGGUUUUUUUGGGAGGGUUUUUUUGGGAAAGUAUUAUGUUACGCCGUUCGGAUCUGCAC,-0.273
GAUGAGACAGAUGCUUCAUCAGCAGUGAAAGUGAAAAGAGCAGUCCAGAAAACAUCCGAUUUAAUAGUGUUGGGUCUCCCAUGGAAAACA,-0.369
GUCCUGUGCUACACAUCGUAUGUACCGAAUCGGGGUUUGGGGUUUUUGGGGAAAGGGGAAAGUAUUAUGUUACGCCGUUCGGAUCUGCAC,0.772
GCAGGAAGUAAAAACAAAUGGAAAUGCUUCGGAUAGUGGCAGGGGUGGGGGUUGCUAAGGAAAGGGUGGGAUAAAAGUGGGUAAAGAGUU,0.683
CACAGACAACACGCACCCACACAGACAAAGAGGGAAGGGGUUGGGAUGGGGACAGGGUGCACAGCAGGGCGGGGUAGGACCCCAGCCCCU,1.91

# Excerpt of the above (set 3):
Oligonucleotide,fluorescence intensity [a.u.]
CCATTAAAAATAATATGTGTGATATTCTTCCACACG,5980
CATACCATCTTTAGCGACGTGTGGAAGACCCGATTC,5050
GTCTTGTCTCATTGCGTCGTGGGTGTCCCCACTTCA,7120
TTTAGGCCGCAGTGGGTCGTGCCAGACGGCAGCGAT,7250
CATTGGCCAGGGACGCATGTGCAGAGGCGGCAGAGT,10400
TGGCATCCCTCCCGACACGTGACCGCAGCGGGGACA,14400
CTTTCCCGATCTTGTCACTCTACTTTAGCACATTTG,3760
AAATTACCGCCTTGACTCGTGAAACTGGATAATTCG,4110
TGCCAAGCACTTTTCATCATGACAATTAGGGTAGAT,3950
CTTTCCCGATCTTGTCACATCACTTTAGCACATTTG,4170
